Measurements pooled from the literature.
Every numbered part comes from another study and shows a few of its results, in no order. Positions count from the first letter of the parent shown.

Sample 1 — method: RNA Bind-n-Seq; form: RNA; matrix: in vitro; tested at: 365 nM; relative to: no-protein control; direction: higher = stronger binding; measurement: RBNS enrichment (R)
Target: RNA binding protein fox-1 homolog 2, RRM domain, GST-SBP tag (RBFOX2, Homo sapiens, UniProt O43251-10, residues 100-194)
Notes: natural RNA segment, single round, ends assumed
Shared flanks, not repeated: GGGAGUUCUACAGUCCGACGAUC … UGGAAUUCUCGGGUGCCAA
Residues (chain): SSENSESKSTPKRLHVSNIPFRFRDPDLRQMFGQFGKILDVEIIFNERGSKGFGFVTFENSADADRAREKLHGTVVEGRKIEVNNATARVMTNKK
UCUAGAUUAUUGUAUAUUCUCACUGGUAUGCUGUUCCCUGGGGGGUGUUCUGUGUCCGACGCUGAGUGACCCUUUGUGAGAAAGACGUUGCCUUUGCAGUACAUGAAACA: 0.442
CUCGUUGUCUUUUCGCUUGAAAUUUUUGAUCUUGUCCUGAAGACUAGCUGCUGCUAAAACAAUGCUAGCCUAAAGAUACAGGAGUCUCUGACAAAAUGACUUUCAUGUUA: 0.429
AAAAUAAUAGUUUUAGUGAGGAUGGUGCUGAGUAAACAUAAAAACUGAUUUGCUCUCAGCUGAUGUGUCCUGUACACAGUGGGAAGAUUUUAGUUCACACUUAGUCUAAC: 0.416
AACUGAGUUUUGUUACCAAUGACCUGUUGCAUGCUUCAAUACCGUGUACUGCCUGAGUUGUGCCUCUUGUGUGCUAGAUUAAAAGUGAGACAGAGACUUGACUUGAUCCU: 1.22
UCAUGUGUGCAACAGGGUAUGGACUAUCUGUCUGGUGGCCCCGUUUCUGGUGGUCUGUUGGCAGGCUGGCCAGUCCAGGCUGCCGUGGGGCCGCCGCCUCUUUCAAGCAG: 0.371
CGUUUUUUUGUUCUGUUUCGUUUUUCAAAAUAAUGCUUUUUGCAAAAGAGGUAAGACUGAGACUAAAGGUGUUAUCUUCUGGUGUGCUCCUGGAAGUGUCUACCCUACAU: 0.446
AAAUAGAAACUAAUAAUAGCUCUAUUUCUCUGCCAAUAUAAAAUCUACCUUUCAUAUAAUGCUACAUUGAAGGCACAGAAUUUGCUACCAUCUCUCUCUCCCCCUACCUA: 0.975
AGAGCUUAGAGGAAAAAGGUCAGCUCUCUUCCUGUUAUACAUGGUUAUACAUGGUUGGGGUUUAAAAGCACAAAGAGAAACCUCCCCCUCCUGGCUUUCGUGGCCAUCUU: 0.257
AUUCAGAUCUCCAGUAGGGUUUUGUAUCUAAUGUAUUUGGCCACCAGUUUUACAUGUAGGUCAUGACUAUACCUGGAUUUUAUCAUUAAGUUAACUUUAAAGUAUAUACA: 0.424
GAUCCCACACAGGCUGGCGGGGGCCGGCCCCGAGGCCGCGUGCGUGAGAACCGCGCCGGUGUCCCCAGAGACCAGGCUGUGUCCCUCUUCUCUUCCCUGCGCCUGUGAUG: 0.493
CCUCUCUAGUCAAAGUGGUAUUACAGACAUUCAGUGACAAUGAAUCAGUGUUAAUUCUAAAUCCUUGAUCCUCUGCAAUGUGCUUGAAAACACAAACCUUUUGGGUUAAA: 0.385
GGGAAUGCUUGACUCCACGCAUUGAGCCCCUCCUACACAUUGGUACAAGGUCGCUUAGGCCCCUCUAGUCAGGGAAGAUUUGGGGGUGACAGGCUCCUUAGUCCUCGACA: 2.05

Sample 2 — method: universal PBM; form: double-stranded DNA, one strand shown; matrix: in vitro; tested at: not given; direction: higher = stronger binding; measurement: E-score
Target: Sal-like protein 4, full length isoform B (SALL4, Homo sapiens, UniProt Q9UJQ4-2, residues 1-616)
Notes: 8-mer, flanks averaged, mean of replicates
Residues (chain): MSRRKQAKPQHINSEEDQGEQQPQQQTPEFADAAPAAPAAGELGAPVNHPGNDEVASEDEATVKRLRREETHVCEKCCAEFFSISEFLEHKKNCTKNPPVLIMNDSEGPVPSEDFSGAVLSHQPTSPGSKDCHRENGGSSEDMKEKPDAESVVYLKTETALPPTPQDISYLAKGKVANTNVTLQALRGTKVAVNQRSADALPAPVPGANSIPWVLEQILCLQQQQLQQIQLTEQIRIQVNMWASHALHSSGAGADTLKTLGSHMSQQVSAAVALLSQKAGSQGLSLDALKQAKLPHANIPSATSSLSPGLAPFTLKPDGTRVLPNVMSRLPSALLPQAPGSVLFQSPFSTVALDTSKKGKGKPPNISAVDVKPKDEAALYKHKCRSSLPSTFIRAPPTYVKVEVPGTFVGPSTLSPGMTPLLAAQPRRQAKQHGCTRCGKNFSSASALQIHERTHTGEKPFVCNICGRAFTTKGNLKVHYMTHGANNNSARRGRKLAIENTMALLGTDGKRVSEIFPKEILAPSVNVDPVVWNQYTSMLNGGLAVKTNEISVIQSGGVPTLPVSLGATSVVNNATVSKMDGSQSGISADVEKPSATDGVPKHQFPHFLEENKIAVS
AGGAAGAT: -0.0377
CAGGATCG: -0.209
AATAGAAT: 0.28
CAAGAGGA: -0.072
GGTTGCCA: -0.174
CTGTAGAA: 0.101
CAATAAGC: 0.123
ATCCGTCA: -0.0981
GATGAAGC: -0.0816
GAGTCGCC: -0.37
GCTGTGCC: -0.17
AGTGGTAC: -0.174
ACCACTGG: -0.0309
CCGTTCTC: -0.0662
TTAATGAA: 0.34
AGGGGTGG: -0.274
CTACGGGC: -0.32

Sample 3 — method: RNA Bind-n-Seq; form: RNA; matrix: in vitro; tested at: not given; relative to: input RNA pool; direction: higher = stronger binding; measurement: bound/input enrichment
Target: RING finger protein unkempt homolog, zinc fingers 1-6, GST-SBP tag (UNK, Homo sapiens, UniProt Q9C0B0, residues 30-357)
UniProt Q9C0B0, sequence (30-357, looked up): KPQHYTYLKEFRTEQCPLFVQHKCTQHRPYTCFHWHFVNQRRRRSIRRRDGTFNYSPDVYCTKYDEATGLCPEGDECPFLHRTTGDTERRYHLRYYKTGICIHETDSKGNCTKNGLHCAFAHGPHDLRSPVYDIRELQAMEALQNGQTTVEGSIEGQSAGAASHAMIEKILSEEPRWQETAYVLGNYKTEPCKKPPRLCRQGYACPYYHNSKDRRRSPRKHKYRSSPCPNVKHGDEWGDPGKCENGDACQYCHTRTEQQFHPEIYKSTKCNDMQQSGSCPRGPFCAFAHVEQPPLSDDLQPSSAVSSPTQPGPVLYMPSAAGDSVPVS
Notes: RNA with constant flanks, human and mouse sites, ends assumed
Shared flanks, not repeated: GGGAGUUCUACAGUCCGACGAUC … CAACAGAGGAUUGAGCAUCA
GACAAGGAAAAUUUGUACAGAGCUCUCCUGCUUACAACCUCAAAUAAAGAAGAUACAUUAUUUUUAAAGGAGCAACUUCGCAAAGCGGAGGAACAAGUCCAGGCAACACGGCAAGAACUU: 0.259 ratio
CCUGUUUUUGCCUCUCUCUGGCUUCUGGAAAGUGCUCCUUCAUGACAUCCCCUAUCUGCAUAGUUCAAGCACCCCAAAUCUGCCCCUUCCUCCUUAAAGACUGGUAGAUGGGAUCAGCUC: 0.569 ratio
UUUUUUACAUUUUUUGGGCAGCAAUUUAAAUGUUAUGACUAUGUAAACUACUUCUCUUGUUAGGUAAUUUUUUUCACCUAGAUUUUUUUCCCAAUUGAGAAAAAUAUAUACUAAACAAAA: 3.72 ratio
CAGAGGAAGCAGCCGAUCGGGCCGGAGGACGUGCUGGGGCUGCAGCGGAUCACCGGUGACUACCUCUGCUCCCCUGAGGAGAAUAUCUACAAGAUCGACUUUGUCAGGUUUAAGAUUCGG: 0.106 ratio
CGGAAUGAAGUUGUUGGUUUAAUUUUCCGUUUGACAAUAUUUGGUGCAGUGACAUACUUUACUAUCAAAUGGAUGGUAGAUGCAAUUGAUCCAACCAGAAAGCAAAAAGUAGAAGCUCAG: 0.231 ratio
CUCCUCUACAGAGCCACAAUGGCUCUGACGCUUGGUGGCACAGCCUAUGCCAUCUAUCUGUUAGCUAUGGCUGCAUUUCCCAAGAAGCAGAACUAAUGUCGUCAUCCCAGUCUUCACGUG: 0.128 ratio
GGUUGGAACUUGCAUUUGAAACAAAGUGCUGGCUUUUUUGAAGACUUGUGUAGGAACACAUUCAAAAAGCCCCUUUCUGGUUGUGAGAGAGGAAAAAAAAGUAUGGAGGCCUUAUUUUCA: 0.17 ratio
GAGAAGCGAGAAAAGAUGAAACGGACCCUUUUAAAAGAUUGGAAGACCCGUUUGAGCUACUUCUUACAAAAUUCCUCUACUCCUGGGAAGCCCAAAACCGGCAAAAAAAGCAAACAGCAA: 0.286 ratio
AUGCACUGUCCUACUGUGCCUGAUGAAAAAAAUCAUUAUGAGAAAAGUUCUGGUUCUUCAGAAGGUCAAAGCAAAACAGAAUCUGAUUUUUCCAACCUAGACUCUGAAAAACACAAAAAA: 0.118 ratio
CUCGGACCCCAGCGUCGGAAGCUGCUUUCGGGGCAUGAGCUGAGGGCACAGCUCUGAGGCUAGCAGUAUUUCUCAGAGAUUGAUGGAAACAGAAACCAAAACUCUUCCCCUGGAGAAUGC: 0.151 ratio
ACAAGAUGACCUUCUGUCGACCUUUAAACUAUAAACGCUGGUUGGAAAUGUUCCCAUGACUGUAAGUCUGCCUGUUGAUUCCUUUUCUUCCAACUACCAUGAUUCUCCUGUGGACCCAGA: 0.276 ratio

Sample 4 — method: protein-binding microarray; form: double-stranded DNA, one strand shown; matrix: in vitro; tested at: not given; direction: higher = stronger binding; measurement: E-score
Target: Protein C-ets-1 (ETS1, Homo sapiens, UniProt P14921, residues 1-441, K379A, full length assumed)
Notes: k-mer, scored over probes, only values ≥0.25
Residues (chain): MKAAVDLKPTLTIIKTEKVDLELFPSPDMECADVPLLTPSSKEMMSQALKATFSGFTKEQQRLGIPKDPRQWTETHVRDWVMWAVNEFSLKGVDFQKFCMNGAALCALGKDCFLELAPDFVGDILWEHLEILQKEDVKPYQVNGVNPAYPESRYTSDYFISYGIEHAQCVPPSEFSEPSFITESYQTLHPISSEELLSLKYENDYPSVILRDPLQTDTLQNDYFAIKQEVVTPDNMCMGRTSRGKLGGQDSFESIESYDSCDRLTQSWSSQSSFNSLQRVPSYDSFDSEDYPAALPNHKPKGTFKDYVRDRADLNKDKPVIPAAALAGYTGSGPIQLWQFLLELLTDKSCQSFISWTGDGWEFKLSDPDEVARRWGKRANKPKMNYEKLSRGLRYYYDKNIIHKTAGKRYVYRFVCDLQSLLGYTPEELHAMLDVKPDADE
CCACCGGA: 0.375
CGGCGCGC: 0.27
GTCAAACA: 0.262
CTACCGGA: 0.35
CGACCGAC: 0.31
GTGCCGGA: 0.288
CCGGTGGA: 0.403
AACATACA: 0.26
ACCGGGGC: 0.454
ACCGGAGA: 0.332
ACCCACCC: 0.333
GCAACGAC: 0.251
CGGTAACG: 0.274
ATAATACA: 0.26
GTACTATA: 0.285
GCGACACC: 0.29
CCGGTGCA: 0.406

Sample 5 — method: DHFR PCA, deep sequencing; matrix: yeast; together with: (+)-ABA 0.39 µM; relative to: wild-type fitted maximum; direction: higher = stronger binding; measurement: relative binding score
Target: ABI1, truncated, D143A, DHFR fusion (Arabidopsis thaliana)
Notes: methotrexate growth selection, single substitutions
Parent: PYL1, truncated, DHFR fusion (Arabidopsis thaliana); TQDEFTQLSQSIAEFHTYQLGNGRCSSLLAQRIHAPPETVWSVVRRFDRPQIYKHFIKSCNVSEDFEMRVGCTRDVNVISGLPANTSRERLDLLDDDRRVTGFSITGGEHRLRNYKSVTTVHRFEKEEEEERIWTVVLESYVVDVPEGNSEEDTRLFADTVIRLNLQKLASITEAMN; partner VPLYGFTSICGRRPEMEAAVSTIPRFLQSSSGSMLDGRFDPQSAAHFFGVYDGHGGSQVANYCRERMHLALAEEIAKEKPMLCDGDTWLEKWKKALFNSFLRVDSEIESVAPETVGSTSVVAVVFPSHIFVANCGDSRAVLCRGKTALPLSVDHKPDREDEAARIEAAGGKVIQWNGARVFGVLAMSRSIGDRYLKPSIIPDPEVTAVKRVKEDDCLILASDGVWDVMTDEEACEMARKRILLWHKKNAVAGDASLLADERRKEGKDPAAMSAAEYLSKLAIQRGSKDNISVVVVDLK
T135Y: -15.6%
L29G: -3.97%
R123M: 18.5%
G107P: -15.7%
A84R: 4.97%
L164C: 45.3%
R24S: 14.3%
K126C: 61.1%
E14H: 4.62%
R74H: -8.5%
K168T: 37.8%
Q51H: 26.7%
D65A: 16.3%
T106I: 108%
L94T: -7.42%
T101F: 73.1%
E64V: 20%

For quick reference, copied from above (sample 4):
CCGGTGGA: 0.403
AACATACA: 0.26
ACCGGGGC: 0.454
ACCGGAGA: 0.332
ACCCACCC: 0.333
GCAACGAC: 0.251
